# Literature values that unrelated publications cite.
# AIFM2: Ferroptosis suppressor protein 1 (AIFM2, Homo sapiens, UniProt Q9BRQ8)
# Chain of UniProt Q9BRQ8 (whole entry, looked up): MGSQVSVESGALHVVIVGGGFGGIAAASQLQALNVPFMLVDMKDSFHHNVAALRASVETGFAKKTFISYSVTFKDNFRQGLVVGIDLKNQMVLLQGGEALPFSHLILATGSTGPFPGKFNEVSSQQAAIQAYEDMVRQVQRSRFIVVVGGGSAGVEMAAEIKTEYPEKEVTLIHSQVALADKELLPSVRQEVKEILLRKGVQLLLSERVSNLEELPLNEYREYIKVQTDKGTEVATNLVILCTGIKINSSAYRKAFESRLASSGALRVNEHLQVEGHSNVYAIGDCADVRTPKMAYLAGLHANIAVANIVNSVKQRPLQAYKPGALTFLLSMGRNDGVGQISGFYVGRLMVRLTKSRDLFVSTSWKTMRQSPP
SMILES,target or system,assay,system,setting,endpoint,value
c1ccc2oc(-c3csc(C4CCN(Cc5nc6ncccc6[nH]5)CC4)n3)cc2c1,mitochondrial complex I,cell-based,,,IC50,33 nM
COc1ccc(N2CCN(Cc3cn4c(-c5ccc(Br)cc5)nnc4s3)CC2)cc1,AIFM2,inhibitor,,,IC50,313 nM
CC1CCN(c2ccnc(NCc3cn(C)cn3)n2)CC1,OGA human,cellular activity,,,EC50,450 nM
CCNCCc1ccc(CN(CC)c2cc(OC)ccc2[C@@H]2CCc3cc(O)ccc3C2)cc1,,local investigator assessed,"human, ER-positive HER2-negative breast cancer",dose not given,objective response rate,6.9%
Nc1c(C(=O)NCc2ccc(C(=O)NCCCC3CCCCC3)cc2)cnn1-c1ccccc1,MAPK11 (human),enzyme activity,,,IC50,32 nM
Cc1ccc(-c2c(C#N)c(N)n3c(nc4ccccc43)c2C#N)cc1,AIFM2,"enzyme activity, inhibitor, resazurin",,,IC50,103 nM
CCOC(=O)c1cc2cc(-c3cc(C(=O)NCc4ccc(C(=O)O)cc4)nn3C)ccc2[nH]1,MMP13,biochemical activity,,,IC50,1 nM
Cc1[nH]c(=O)c(C#N)cc1-c1ccncc1,Cryptosporidium parvum,high-throughput screen,,concentration not given,activity,inactive

# Some of these lines once more:
SMILES,target or system,assay,system,setting,endpoint,value
COc1ccc(N2CCN(Cc3cn4c(-c5ccc(Br)cc5)nnc4s3)CC2)cc1,AIFM2,inhibitor,,,IC50,313 nM
